# Measured values from different studies.
# Compare with care: the assays were run in different laboratories.
# Target: 5-hydroxytryptamine receptor 3A (HTR3A, Homo sapiens, UniProt P46098)
# Sequence of UniProt P46098 (whole entry, looked up): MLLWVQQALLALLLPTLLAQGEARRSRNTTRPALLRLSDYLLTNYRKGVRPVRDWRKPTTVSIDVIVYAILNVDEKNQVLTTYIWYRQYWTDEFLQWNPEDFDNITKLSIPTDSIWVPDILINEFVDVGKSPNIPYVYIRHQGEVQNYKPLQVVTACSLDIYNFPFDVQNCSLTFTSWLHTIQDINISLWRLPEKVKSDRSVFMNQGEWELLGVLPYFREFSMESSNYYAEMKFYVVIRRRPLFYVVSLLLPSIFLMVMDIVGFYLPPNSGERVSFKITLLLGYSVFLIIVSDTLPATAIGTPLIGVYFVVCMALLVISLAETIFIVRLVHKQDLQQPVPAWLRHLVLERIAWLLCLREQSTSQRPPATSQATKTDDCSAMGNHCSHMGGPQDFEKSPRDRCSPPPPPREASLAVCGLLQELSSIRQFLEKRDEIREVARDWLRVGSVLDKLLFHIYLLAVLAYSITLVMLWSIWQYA
Compound,test,test system,setting,how to read,inhibition
OCCCN1CC[C@@H]2C[C@H]1c1cc(-c3ccc(C(F)(F)F)cc3)ccc12,"radioligand binding, PDSP competition binding",,10 µM,,< 50%
CCS(=O)(=O)c1nc(S(=O)(=O)c2ccccc2Cl)c(N2CCN(C)C(=O)[C@H]2C)s1,,,10 µM,,7.15%
CN(C(=O)n1cnc(-c2ccc[n+]([O-])c2)c1)C1CCCCC1,receptor binding,,"10 µM, subtype 5HT3",,-1.51%
O=C(CN1CCO[C@H](COc2cccnc2)C1)N1CCc2ccccc21,radioligand binding,,"concentration not given, with: [3H]GR65630",,2.6%
CN1CCC(CNc2ccc3ncc(-c4cccc(OC(F)(F)F)c4)n3n2)CC1,"ion channel activity, blocker",,10 µM,reference: control,> 50%
Cc1ncccc1OC[C@H]1CN(CCN2CCc3ccccc32)CCO1,radioligand binding,,"concentration not given, with: [3H]GR65630",,-12.7%
CN1[C@@H]2CC[C@H]1C[C@@H](OC(=O)c1c[nH]c3ccccc13)C2,radioligand binding,human,10 µM,,100%
O=C(NO)c1ccc(CN2CCCCc3ccccc32)c(F)c1,"radioligand binding, radioligand displacement",,"10 µM, mean of replicates",,13.2%
O=C1c2ccccc2CCN1CCCCN1CCN(c2cccc(Cl)c2Cl)CC1,radioligand binding,,"concentration not given, with: [3H]GR65630",,99.5%

# A few entries again:
Compound,test,test system,setting,how to read,inhibition
O=C(NO)c1ccc(CN2CCCCc3ccccc32)c(F)c1,"radioligand binding, radioligand displacement",,"10 µM, mean of replicates",,13.2%
